# Measurements gathered from unrelated publications.
# Parts stem from different laboratories: compare values within a part only.

# Study 1
# Target: RING finger protein unkempt homolog, zinc fingers 1-6, GST-SBP tag (UNK, Homo sapiens, UniProt Q9C0B0, residues 30-357)
# Technique: RNA Bind-n-Seq
# Form: RNA
# Medium: in vitro
# Concentration: not given
# Setting: RNA with constant flanks, ends assumed
# Relative to: input RNA pool
# Direction: higher = stronger binding
# Target sequence (chain): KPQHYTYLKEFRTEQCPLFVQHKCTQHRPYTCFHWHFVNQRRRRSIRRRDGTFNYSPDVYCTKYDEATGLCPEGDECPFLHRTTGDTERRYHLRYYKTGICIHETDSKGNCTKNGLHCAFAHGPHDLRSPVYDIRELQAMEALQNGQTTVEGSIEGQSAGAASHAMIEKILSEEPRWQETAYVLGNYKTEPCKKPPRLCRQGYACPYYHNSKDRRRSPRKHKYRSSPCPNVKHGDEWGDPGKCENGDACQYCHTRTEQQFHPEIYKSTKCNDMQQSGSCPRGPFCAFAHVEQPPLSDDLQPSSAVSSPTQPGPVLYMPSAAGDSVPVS
Sequence,bound/input enrichment [ratio]
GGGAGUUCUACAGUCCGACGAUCCUUUUUGGCCAUCUUUUAAAACUUUUUUUUUUUUUUUUGAUCUAUAAAAUAGACAAGAGACCGUUCUACAAUGUCCAAGUCAUUCCAGCAGUCAUCUCUCGGUAGGGAUUCACAGGGUCACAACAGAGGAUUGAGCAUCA,1.45
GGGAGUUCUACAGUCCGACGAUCCUCCAGCUCGUGUAUGAGUUCUUCUUACGUUUCCUUGAGUCUCCUGAUUUCCAGCCAAACACCGCCAAGAAGUACAUCGACCAGAAGUUUGUACUUGCUCUCCUAGACCUAUUUGACAGUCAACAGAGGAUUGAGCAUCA,0.426
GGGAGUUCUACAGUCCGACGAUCGAGAGCAAUUUUAACCUUACUCAUUAUGGAACUCAGCAAAUCCCUCCUGCUUACAAAGAUUCCGCUGAGCCAUGGAUUCAGGUGUUUGGAAUGGAACUCGUUGGCUGCUUAUUUUCUAGACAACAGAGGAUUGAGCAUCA,0.278
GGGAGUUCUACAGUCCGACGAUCAAAAUUUUAGAAGAGUUUAGGAAAACACAGCAGACAUCUCCUGAUAAAGUGGAUUAUGAAUACCGUGAACUCCUCUUAUAUCAGAAUCAAGUUCUUCGGGAAGCAGGUCUUUAUAGAGAACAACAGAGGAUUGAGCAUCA,1.2
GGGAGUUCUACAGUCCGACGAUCUUCUUUUCUUUUCUUUUCUUUUCUUUUCUUUUCUUUUCUUUUCUUUUUUCUUUUUUUUUUUUCCGGCAGUGUGUUGCUAAACAGCCCUGGCUGGCCUGGGACUUGCUAUGUAGACCAGGCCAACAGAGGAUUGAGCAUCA,4.62
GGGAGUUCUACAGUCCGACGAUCGUUACCUGUGUUGCUGCCUCUCCCCACAAAGACUCUGUGUUUCUUUCAUGUAGUGAGGACAGCCGAAUUUUGCUCUGGGAUACCCGCUGUCCCAAGCCGGCAUCACAGAUGGCCUGCAAUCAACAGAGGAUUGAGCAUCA,0.344
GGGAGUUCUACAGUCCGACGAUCGGAGAUAUUCCAGAUCUUUCACAGGCCCCCAGCAGUCUUCUUGAUGCUUUAGAACAACAUUCCGCUUCCUUGGAAGGAAAGAAAAUCAAAGAUUCCACAGCUGCAAGCAGGGCUACAACACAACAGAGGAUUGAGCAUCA,0.111
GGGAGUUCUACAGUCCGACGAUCAAUUCCAGUGACAGUGAUUCAUCUUGUGGUUGGACUGUCAUCAGUCAUGAGGGGUCAGAUACCGAAAUGUUGAAUUCUGUGACCCCCACUGACAGCUGUGAGCCCGCCCCAGAAUGUUCACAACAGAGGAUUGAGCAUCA,0.052

# Study 2
# Target: Histone acetyltransferase KAT6A, winged helix 1, GST fusion (KAT6A, Homo sapiens, UniProt Q92794, residues 1-85)
# Technique: protein binding microarray
# Form: double-stranded DNA, one strand shown
# Medium: in vitro
# Concentration: not given
# Setting: 8-mer, flanks averaged, mean of 2 arrays, mostly near background
# Relative to: not given
# Direction: higher = stronger binding
# Construct (chain): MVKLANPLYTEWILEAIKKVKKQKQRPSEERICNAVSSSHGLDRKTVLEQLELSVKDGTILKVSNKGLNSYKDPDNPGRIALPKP
Sequence,E-score
TACTCCTA,-0.128
GATTAACA,-0.041
CAGACGTC,-0.056
TTCCCGAA,0.0409
ACCTTCAG,-0.122
AATAAGGC,-0.151
CATCTAAA,-0.219
ACCATCCT,-0.105
AACGTTTC,-0.23
AGACGCGG,0.352
ACATAGAC,-0.0873
ACTATGTG,-0.0675
CATGTGGC,-0.00133
GGTGGGGA,-0.185
ACGCCTTA,0.134
ACAGTCGG,0.0494
TACGCCTA,-0.00466
CCATACCA,-0.154
CGACTGCC,0.217
CTTGTTTC,-0.278
GCCATACA,0.0182
TGAGACCA,-0.225
CAGTCTCG,-0.177
ACACCGTC,0.246
TGACTAAA,-0.132

# Study 3
# Target: Interferon regulatory factor 5, full length, phosphomimetic (IRF5, Homo sapiens, UniProt Q13568-2, residues 1-514, K96S/S451D/S453D/S456D/S462D)
# Technique: protein-binding microarray
# Form: double-stranded DNA, one strand shown
# Medium: in vitro
# Concentration: 250 nM
# Setting: 60-bp whole probe
# With: salmon DNA 0.4 mg/ml
# Relative to: random background probes
# Direction: higher = stronger binding
# All sequences stand within: GCCTAGCAC … GTCTTGATTCGCTTGACGCTGCTG
Sequence,log fluorescence [z-score]
GACGGTATCGTTCTCCTGACGTGCTAG,1.74
AGCACTTTGGCATGTCTTGACGTGCTA,-0.764
GACGATCTCAGGTTCGAGACGTGCTAG,-0.188
GAAGATTTCGGGTTTCGAGACGTGCTA,4.87
TTCATTATTGTCTTCCCCATGTGCTAG,1.03
GACGATTTCAGACTCGAGACGTGCTAG,0.256
TTAGGTTTCGACACTGGGCTAGTGCTA,5.59
TTAGGACTGGGGTCTCGGTTAGTGCTA,-0.17
TCCCTTCAACAGTGCTGGCTGTGCTAG,0.0471
TTAGAACTGGGGTTTCGAGTAGTGCTA,1.82
TTAGAACTGGGGTATCGACTAGTGCTA,0.824
GACGATCTCAGTTTCGCGACGTGCTAG,1.24
GTCCTTTTCTTTACTGATGGGTGCTAG,0.427
GACGCTATCGGGTATCGGGACGTGCTA,3.52
GACGAACTGGGGGTTCGAGACGTGCTA,-0.197
TTTAGAAAGATTAGGGGTGCGTGCTAG,0.244
ACTAGTTTCTTTTCTTTTCTGTGCTAG,4.01
CTCGCCTGGGGATGCTAACAGTGCTAG,-0.814
TTATGTTCCCTTTTCCTTTAGTGCTAG,1.16
TTTTTTCTTTTATTAGTGACGTGCTAG,2.2
TTAGGTATCGGTCTCGATTAGTGCTAG,7.1

# Study 4
# Target: RNA binding protein fox-1 homolog 2, RRM domain, GST-SBP tag (RBFOX2, Homo sapiens, UniProt O43251-10, residues 100-194)
# Technique: RNA Bind-n-Seq
# Form: RNA
# Medium: in vitro
# Concentration: 365 nM
# Setting: natural RNA segment, single round, ends assumed
# Relative to: no-protein control
# Direction: higher = stronger binding
# Construct (chain): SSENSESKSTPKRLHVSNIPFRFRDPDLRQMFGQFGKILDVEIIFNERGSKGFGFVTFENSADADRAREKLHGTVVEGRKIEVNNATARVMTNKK
Sequence,RBNS enrichment (R)
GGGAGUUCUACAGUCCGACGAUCCUGUGCUUUAUAAACUAUAUUAGAGGGACUGGGUUUAAAAAAAAAGAUAUAGGGUAGAAAUAAGAGCUAUACUUACAAGAGUCAAUAGAUCACUGACUUCUCUUUAACUGUGGAAUUCUCGGGUGCCAA,0.425
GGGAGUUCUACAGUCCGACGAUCCACUCAGCAAACAUUUCCUGAGUACCUACUAUAUACCAAACUUAUAGAAAGACUAACUAGGGAACAACAAGGCCACAAACAAGCCACCUGGCACAGCAGCCUUCUACUCAUGGAAUUCUCGGGUGCCAA,0.169
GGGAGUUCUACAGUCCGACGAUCCCGCCCUUCAUACUGGGAACAGAAUGUAUGUAACCCAUGUCAAUCAGAUGCAGGUGGUACCCACACGACCAGAGUGAUCAAUAGGAAUUUUCUUGGUGUUCCUUUCUUCCUGGAAUUCUCGGGUGCCAA,3.68
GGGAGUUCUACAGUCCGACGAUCGGGCCUGACCCCAACACCUGCAUGCUGGGUCCAGAGCCUUCUGUUUCACCGUGCGUGGACACUGCUAGGCCGCCUGGGGUCCCCUGCCUCCUGCCUGUCGCUGCCGUGGUUGGAAUUCUCGGGUGCCAA,6.36
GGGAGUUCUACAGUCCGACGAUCUGCAGUCAGAGCUGACUUGUAAACUAUUCUUGUAAUAGCUCAUUAUUUUGAAAGAUUUAUAUAUGAUGAAUUCUGGAUAUAUGACCAAUAAAACUGAUGAAGCAAAACCUUGGAAUUCUCGGGUGCCAA,0.359
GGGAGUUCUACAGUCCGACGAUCUGCCCCAGCGGCCCUGGCCCCAGGCUCUAUUAACCUAAAAUGUAGCUCCCUAGCGCUAACCUAGGAACCGCCGCUGCCUGCUGGGGGGCCACGCCCCUCAUGCCCUUGUCUGGAAUUCUCGGGUGCCAA,0.328
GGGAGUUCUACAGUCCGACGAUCUGUUCCCCUCCUGUGUCCUUUUUCUCGUUCUUUCUUUCCUGUCCAGUGCAUGAUGUUUAAGGCCACAUAUAGUCCAGCUGAUGCCAAUAAUAAAAGACAAGAAACCAAGUUGGAAUUCUCGGGUGCCAA,1.31
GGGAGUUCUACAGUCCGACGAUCCUCUGAGGCAUUGUGGUGGUCCCUUGUCUGAUAAAUAAAUAAUGAAUAAAUAAAAGUUAUAUCAGACAGUACUGACAGACAAUAAAGAAACCCCCCCCCCAGGGUGCCCAUGGAAUUCUCGGGUGCCAA,0.54
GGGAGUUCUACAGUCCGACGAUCCAGUAUUAAGGUUUUCAACCGGAAGGAGGCCAACCAGCCCGACAGUGCCAUCCCCACCUUCACCUCGGAGGGAUGGAGAAAGAAGUGGAGACAGUCCUUUCCCACCAUUCUGGAAUUCUCGGGUGCCAA,0.283

# For quick reference, copied from above (study 3):
Sequence,log fluorescence [z-score]
GACGATCTCAGTTTCGCGACGTGCTAG,1.24
GACGGTATCGTTCTCCTGACGTGCTAG,1.74
TTAGGACTGGGGTCTCGGTTAGTGCTA,-0.17
TCCCTTCAACAGTGCTGGCTGTGCTAG,0.0471
ACTAGTTTCTTTTCTTTTCTGTGCTAG,4.01
TTAGAACTGGGGTTTCGAGTAGTGCTA,1.82
GAAGATTTCGGGTTTCGAGACGTGCTA,4.87
TTAGAACTGGGGTATCGACTAGTGCTA,0.824
AGCACTTTGGCATGTCTTGACGTGCTA,-0.764
GTCCTTTTCTTTACTGATGGGTGCTAG,0.427
